Measurements pooled from the literature.
Numbered parts are unrelated; each lists some results of a single study.
Sequence of UniProt P35968 (whole entry, looked up): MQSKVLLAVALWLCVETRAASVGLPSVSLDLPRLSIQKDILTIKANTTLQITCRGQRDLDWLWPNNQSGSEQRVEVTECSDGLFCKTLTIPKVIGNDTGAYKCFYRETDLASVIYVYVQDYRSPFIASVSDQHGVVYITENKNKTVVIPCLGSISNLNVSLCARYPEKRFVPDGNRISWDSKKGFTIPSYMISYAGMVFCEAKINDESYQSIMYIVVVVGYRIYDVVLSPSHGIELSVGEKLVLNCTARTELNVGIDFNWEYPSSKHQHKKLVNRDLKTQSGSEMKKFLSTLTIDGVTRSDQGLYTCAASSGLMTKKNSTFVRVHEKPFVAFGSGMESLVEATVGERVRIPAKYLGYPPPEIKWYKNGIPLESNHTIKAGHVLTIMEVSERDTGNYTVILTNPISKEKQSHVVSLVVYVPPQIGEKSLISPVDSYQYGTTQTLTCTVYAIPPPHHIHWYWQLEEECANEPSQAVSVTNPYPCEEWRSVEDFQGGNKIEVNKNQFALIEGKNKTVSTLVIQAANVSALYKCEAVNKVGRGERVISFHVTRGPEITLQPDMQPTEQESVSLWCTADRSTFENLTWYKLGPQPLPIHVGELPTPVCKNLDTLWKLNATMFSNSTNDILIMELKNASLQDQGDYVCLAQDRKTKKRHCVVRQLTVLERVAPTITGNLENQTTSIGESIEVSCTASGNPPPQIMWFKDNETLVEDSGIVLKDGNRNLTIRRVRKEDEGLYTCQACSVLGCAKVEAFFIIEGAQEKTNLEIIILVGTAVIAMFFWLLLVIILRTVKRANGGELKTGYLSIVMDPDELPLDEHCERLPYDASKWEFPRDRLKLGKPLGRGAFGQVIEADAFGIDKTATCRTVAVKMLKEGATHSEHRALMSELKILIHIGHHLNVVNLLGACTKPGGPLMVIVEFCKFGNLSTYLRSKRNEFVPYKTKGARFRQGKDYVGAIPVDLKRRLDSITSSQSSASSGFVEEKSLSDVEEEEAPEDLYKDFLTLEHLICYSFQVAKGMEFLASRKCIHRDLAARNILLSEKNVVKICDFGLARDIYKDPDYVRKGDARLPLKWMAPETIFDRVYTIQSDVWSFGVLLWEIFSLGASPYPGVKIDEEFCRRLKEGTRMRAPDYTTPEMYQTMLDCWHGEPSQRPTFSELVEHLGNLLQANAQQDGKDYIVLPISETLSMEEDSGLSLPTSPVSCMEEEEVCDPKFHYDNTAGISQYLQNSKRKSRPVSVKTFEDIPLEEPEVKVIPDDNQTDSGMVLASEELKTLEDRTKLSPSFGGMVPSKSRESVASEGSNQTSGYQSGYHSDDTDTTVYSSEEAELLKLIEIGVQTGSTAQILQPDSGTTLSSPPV
Sequence of UniProt Q13237 (whole entry, looked up): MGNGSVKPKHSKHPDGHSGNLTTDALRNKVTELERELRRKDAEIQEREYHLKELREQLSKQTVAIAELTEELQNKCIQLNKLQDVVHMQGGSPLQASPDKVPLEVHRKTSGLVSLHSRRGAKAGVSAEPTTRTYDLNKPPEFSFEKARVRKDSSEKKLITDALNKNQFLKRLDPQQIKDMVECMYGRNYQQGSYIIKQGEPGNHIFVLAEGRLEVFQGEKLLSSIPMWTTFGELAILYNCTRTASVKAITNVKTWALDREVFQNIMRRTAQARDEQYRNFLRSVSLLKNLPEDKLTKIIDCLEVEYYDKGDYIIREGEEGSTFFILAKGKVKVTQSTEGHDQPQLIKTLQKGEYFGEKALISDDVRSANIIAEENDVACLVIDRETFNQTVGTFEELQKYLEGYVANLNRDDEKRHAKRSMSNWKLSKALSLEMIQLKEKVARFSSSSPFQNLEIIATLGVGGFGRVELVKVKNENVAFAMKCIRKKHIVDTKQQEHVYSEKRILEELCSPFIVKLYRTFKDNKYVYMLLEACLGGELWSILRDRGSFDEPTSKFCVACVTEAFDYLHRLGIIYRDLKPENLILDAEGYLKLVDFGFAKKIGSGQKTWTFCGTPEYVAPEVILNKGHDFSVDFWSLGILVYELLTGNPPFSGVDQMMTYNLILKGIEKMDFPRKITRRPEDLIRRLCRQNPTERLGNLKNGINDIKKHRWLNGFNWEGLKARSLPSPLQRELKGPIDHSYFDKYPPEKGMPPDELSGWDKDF
Sequence of UniProt P32298 (whole entry, looked up): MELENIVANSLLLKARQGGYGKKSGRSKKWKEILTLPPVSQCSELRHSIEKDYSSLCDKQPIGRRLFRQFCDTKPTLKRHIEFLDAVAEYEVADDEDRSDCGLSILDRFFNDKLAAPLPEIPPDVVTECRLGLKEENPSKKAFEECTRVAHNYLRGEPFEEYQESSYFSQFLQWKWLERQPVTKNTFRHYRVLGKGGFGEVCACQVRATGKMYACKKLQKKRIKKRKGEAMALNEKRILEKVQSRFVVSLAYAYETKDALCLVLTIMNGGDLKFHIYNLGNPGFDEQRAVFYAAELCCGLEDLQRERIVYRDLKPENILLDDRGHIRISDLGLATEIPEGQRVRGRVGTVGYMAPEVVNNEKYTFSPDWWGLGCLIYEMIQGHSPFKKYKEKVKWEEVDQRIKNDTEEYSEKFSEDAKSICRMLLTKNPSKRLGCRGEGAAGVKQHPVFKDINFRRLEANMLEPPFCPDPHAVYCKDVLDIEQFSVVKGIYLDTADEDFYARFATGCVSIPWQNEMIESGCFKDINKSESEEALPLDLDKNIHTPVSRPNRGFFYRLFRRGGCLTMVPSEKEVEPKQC
Sequence of UniProt Q6P2M8 (whole entry, looked up): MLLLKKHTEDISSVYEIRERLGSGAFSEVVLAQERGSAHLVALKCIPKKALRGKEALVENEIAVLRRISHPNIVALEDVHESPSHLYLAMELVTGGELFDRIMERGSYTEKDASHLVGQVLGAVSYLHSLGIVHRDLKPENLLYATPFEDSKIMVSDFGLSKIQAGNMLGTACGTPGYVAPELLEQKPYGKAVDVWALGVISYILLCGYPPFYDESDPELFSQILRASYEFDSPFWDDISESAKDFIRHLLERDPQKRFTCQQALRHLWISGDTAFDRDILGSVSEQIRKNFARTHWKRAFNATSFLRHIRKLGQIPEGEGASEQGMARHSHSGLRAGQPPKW
Sequence of UniProt Q59H18 (whole entry, looked up): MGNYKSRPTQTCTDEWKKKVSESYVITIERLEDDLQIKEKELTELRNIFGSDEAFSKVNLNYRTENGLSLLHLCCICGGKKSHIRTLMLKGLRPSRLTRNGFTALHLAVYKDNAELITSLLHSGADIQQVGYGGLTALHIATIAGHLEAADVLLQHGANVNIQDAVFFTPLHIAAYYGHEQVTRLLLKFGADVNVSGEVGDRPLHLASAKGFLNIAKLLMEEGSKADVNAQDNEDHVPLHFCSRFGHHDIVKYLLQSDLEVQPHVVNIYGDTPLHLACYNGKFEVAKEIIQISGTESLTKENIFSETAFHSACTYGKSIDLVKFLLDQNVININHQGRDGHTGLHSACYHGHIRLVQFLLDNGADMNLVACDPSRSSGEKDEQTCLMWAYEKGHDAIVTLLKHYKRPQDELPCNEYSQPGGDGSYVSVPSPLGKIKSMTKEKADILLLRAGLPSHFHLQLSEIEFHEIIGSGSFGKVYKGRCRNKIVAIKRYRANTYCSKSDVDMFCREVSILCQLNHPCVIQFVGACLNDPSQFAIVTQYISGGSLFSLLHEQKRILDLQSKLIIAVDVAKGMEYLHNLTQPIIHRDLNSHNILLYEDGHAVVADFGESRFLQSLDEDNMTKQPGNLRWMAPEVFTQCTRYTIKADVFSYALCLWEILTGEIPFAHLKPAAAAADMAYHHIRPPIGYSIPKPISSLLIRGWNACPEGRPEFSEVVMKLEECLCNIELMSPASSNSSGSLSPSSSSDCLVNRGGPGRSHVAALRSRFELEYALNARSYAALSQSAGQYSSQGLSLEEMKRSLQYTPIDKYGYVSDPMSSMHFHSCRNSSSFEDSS
Sequence of UniProt P49674 (whole entry, looked up): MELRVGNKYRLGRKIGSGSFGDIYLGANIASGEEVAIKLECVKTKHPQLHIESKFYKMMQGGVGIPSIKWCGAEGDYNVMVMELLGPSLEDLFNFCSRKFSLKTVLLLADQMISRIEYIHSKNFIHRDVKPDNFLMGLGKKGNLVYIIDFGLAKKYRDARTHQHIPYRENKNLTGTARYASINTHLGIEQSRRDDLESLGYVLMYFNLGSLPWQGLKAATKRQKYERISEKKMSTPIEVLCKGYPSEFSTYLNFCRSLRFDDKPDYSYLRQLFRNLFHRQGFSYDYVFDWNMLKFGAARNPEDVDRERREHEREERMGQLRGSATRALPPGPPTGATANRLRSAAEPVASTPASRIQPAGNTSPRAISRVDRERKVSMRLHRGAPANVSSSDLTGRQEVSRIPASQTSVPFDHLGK
Sequence of UniProt P43403 (whole entry, looked up): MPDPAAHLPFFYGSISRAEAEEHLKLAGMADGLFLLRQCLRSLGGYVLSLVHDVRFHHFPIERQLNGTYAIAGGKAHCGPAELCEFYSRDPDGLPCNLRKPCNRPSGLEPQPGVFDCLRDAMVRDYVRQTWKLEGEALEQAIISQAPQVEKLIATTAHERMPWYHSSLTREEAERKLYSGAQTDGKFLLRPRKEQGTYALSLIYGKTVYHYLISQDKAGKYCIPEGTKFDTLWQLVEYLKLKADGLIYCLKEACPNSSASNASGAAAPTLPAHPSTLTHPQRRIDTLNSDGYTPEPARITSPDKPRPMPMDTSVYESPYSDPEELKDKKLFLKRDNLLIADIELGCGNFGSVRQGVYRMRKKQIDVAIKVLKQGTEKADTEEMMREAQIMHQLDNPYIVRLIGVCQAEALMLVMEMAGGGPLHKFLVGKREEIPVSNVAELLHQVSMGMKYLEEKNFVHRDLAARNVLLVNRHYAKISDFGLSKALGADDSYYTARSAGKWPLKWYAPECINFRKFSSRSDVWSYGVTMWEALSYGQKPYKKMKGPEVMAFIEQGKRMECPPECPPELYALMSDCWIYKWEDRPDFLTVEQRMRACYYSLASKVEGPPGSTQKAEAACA

Study 1
Organism: Plasmodium berghei
Mode: inhibitor
Cell line: Huh-7
Strain: liver stage
Concentration: 10 µM
Time: 24 h
Reference: untreated control
SMILES	infection rate [%]
CC(=O)O[C@]1(C(C)=O)CC[C@H]2[C@@H]3C=C(C)C4=CC(=O)CC[C@]4(C)[C@H]3CC[C@@]21C	68
CCN(CC)CCNC(=O)COc1ccc(OC)cc1	117
CC[C@@H](Cc1c(I)cc(I)c(N)c1I)C(=O)O	86
CCCCCCc1ccc(O)cc1O	96.7
O=c1[nH]cc(F)c(=O)[nH]1	81.9
C=C1C[C@H]2[C@@H]3C=C(C)C4=CC(=O)CC[C@]4(C)[C@H]3CC[C@]2(C)[C@@]1(OC(C)=O)C(C)=O	73.7
CCN(CCO)CCCC(C)Nc1ccnc2cc(Cl)ccc12 (stereo not shown)	91.5
O=c1[nH]c(=O)n([C@H]2C[C@H](O)[C@@H](CO)O2)cc1F	43.8
CCOC(=O)c1ccc(O)cc1	87.4
COC1=CC(=O)C[C@@H](C)[C@]12Oc1c(Cl)c(OC)cc(OC)c1C2=O	137
CCOC(=O)Nc1nc2ccccc2[nH]1	64.2
Cc1cc(NC(=O)C2=C(O)c3ccccc3S(=O)(=O)N2C)no1	94.8
O=C(O)c1ccc(S(=O)(=O)N(Cl)Cl)cc1	95.8

Study 2
Structure (SMILES): O=C(Nc1ccc(Oc2ccc(F)cc2)cc1)N1CCc2ncccc2[C@H]1c1ccc(F)cc1
Method: competition with immobilised ligand
Concentration: 1 µM
target	effect on	remaining binding [%]
Tyrosine-protein kinase Lyn (LYN, Homo sapiens, UniProt P07948)	cell-free assay	95
Myosin-IIIb (MYO3B, Homo sapiens, UniProt Q8WXR4)	binding	83
Inhibitor of nuclear factor kappa-B kinase subunit epsilon (IKBKE, Homo sapiens, UniProt Q14164)	cell-free assay	89
Serine/threonine-protein kinase 38-like (STK38L, Homo sapiens, UniProt Q9Y2H1)	cell-free assay	76
Vascular endothelial growth factor receptor 1 (FLT1, Homo sapiens, UniProt P17948)	cell-free assay	100
cGMP-dependent protein kinase 2 (PRKG2, Homo sapiens, UniProt Q13237)	cell-free assay	100
Calcium/calmodulin-dependent protein kinase type 1 (CAMK1, Homo sapiens, UniProt Q14012)	cell-free assay	70
Tyrosine-protein kinase JAK3, JH1 (JAK3, Homo sapiens, UniProt P52333)	cell-free assay	100
Vascular endothelial growth factor receptor 2 (KDR, Homo sapiens, UniProt P35968)	cell-free assay	100
Epidermal growth factor receptor (EGFR, Homo sapiens, UniProt P00533, del747-752/P753S)	cell-free assay	100
Cyclin-dependent kinase 4, with cyclin D3 (CDK4, Homo sapiens, UniProt P11802)	cell-free assay	94
Epidermal growth factor receptor (EGFR, Homo sapiens, UniProt P00533, A750P/del747-749)	cell-free assay	92
Serine/threonine-protein kinase TNNI3K (TNNI3K, Homo sapiens, UniProt Q59H18)	cell-free assay	100
Activin receptor type-2A (ACVR2A, Homo sapiens, UniProt P27037)	cell-free assay	100
Casein kinase I isoform epsilon (CSNK1E, Homo sapiens, UniProt P49674)	cell-free assay	85
Tyrosine-protein kinase ABL1, phosphorylated (ABL1, Homo sapiens, UniProt P00519, Y253F)	cell-free assay	82
Calcium/calmodulin-dependent protein kinase type II subunit delta (CAMK2D, Homo sapiens, UniProt Q13557)	cell-free assay	89
Interleukin-1 receptor-associated kinase 3 (IRAK3, Homo sapiens, UniProt Q9Y616)	cell-free assay	100
Rho-associated protein kinase 2 (ROCK2, Homo sapiens, UniProt O75116)	cell-free assay	93
ALK tyrosine kinase receptor (ALK, Homo sapiens, UniProt Q9UM73, C1156Y)	cell-free assay	93
Serine/threonine-protein kinase VRK2 (VRK2, Homo sapiens, UniProt Q86Y07)	cell-free assay	97
Tyrosine-protein kinase ABL1, phosphorylated (ABL1, Homo sapiens, UniProt P00519)	cell-free assay	100
Receptor-type tyrosine-protein kinase FLT3 (FLT3, Homo sapiens, UniProt P36888, D835Y)	cell-free assay	99
Wee1-like protein kinase 2 (WEE2, Homo sapiens, UniProt P0C1S8)	cell-free assay	100
Cyclin-dependent kinase 15 (CDK15, Homo sapiens, UniProt Q96Q40)	cell-free assay	86

Study 3
Structure (SMILES): CO[C@@H]1[C@H](N(C)C(=O)c2ccccc2)C[C@H]2O[C@]1(C)n1c3ccccc3c3c4c(c5c6ccccc6n2c5c31)C(=O)NC4
Effect on: enzyme activity
Mode: inhibitor
Concentration: 1 µM
target	inhibition [%]
Tyrosine-protein kinase ZAP-70 (ZAP70, Homo sapiens, UniProt P43403)	81
Cyclin-dependent kinase 18 (CDK18, Homo sapiens, UniProt Q07002)	0
Tyrosine-protein kinase receptor TYRO3 (TYRO3, Homo sapiens, UniProt Q06418)	44
Insulin receptor (INSR, Homo sapiens, UniProt P06213)	0
Serine/threonine-protein kinase/endoribonuclease IRE1 (ERN1, Homo sapiens, UniProt O75460)	14
Interferon-induced, double-stranded RNA-activated protein kinase (EIF2AK2, Homo sapiens, UniProt P19525)	0
Serine/threonine-protein kinase Sgk1 (SGK1, Homo sapiens, UniProt O00141)	25
Tyrosine-protein kinase ABL1, phosphorylated (ABL1, Homo sapiens, UniProt P00519, Q252H)	7
Mitogen-activated protein kinase kinase kinase 20 (MAP3K20, Homo sapiens, UniProt Q9NYL2)	0

Study 4
SMILES: COc1cc2c(cc1OC)-c1[nH]nc(Nc3cccc(F)c3)c1C2
Effect on: enzyme activity
Mode: inhibitor
Concentration: 0.5 µM
Reference: control
target	remaining activity
Dual specificity mitogen-activated protein kinase kinase 1 (MAP2K1, Homo sapiens, UniProt Q02750)	90.1%
Serine/threonine-protein kinase MARK2 (MARK2, Homo sapiens, UniProt Q7KZI7)	77.2%
G protein-coupled receptor kinase 4 (GRK4, Homo sapiens, UniProt P32298)	97.1%
Calcium/calmodulin-dependent protein kinase type IV (CAMK4, Homo sapiens, UniProt Q16566)	106%
Calcium/calmodulin-dependent protein kinase type 1B (PNCK, Homo sapiens, UniProt Q6P2M8)	98%
cGMP-dependent protein kinase 2 (PRKG2, Homo sapiens, UniProt Q13237)	92.5%
Cyclin-dependent kinase 9, with cyclin K (CDK9, Homo sapiens, UniProt P50750)	91.9%
Mitogen-activated protein kinase 11 (MAPK11, Homo sapiens, UniProt Q15759)	83%
Vascular endothelial growth factor receptor 2 (KDR, Homo sapiens, UniProt P35968)	98.7%
Dual specificity protein kinase CLK3 (CLK3, Homo sapiens, UniProt P49761)	96.5%
Cyclin-dependent kinase 1, with cyclin A (CDK1, Homo sapiens, UniProt P06493)	92.6%
RAC-beta serine/threonine-protein kinase (AKT2, Homo sapiens, UniProt P31751)	95.3%
Hepatocyte growth factor receptor (MET, Homo sapiens, UniProt P08581)	97.8%
Mitogen-activated protein kinase 14 (MAPK14, Homo sapiens, UniProt Q16539)	94.3%

A few entries again (study 1):
SMILES	infection rate [%]
CCN(CC)CCNC(=O)COc1ccc(OC)cc1	117
CC[C@@H](Cc1c(I)cc(I)c(N)c1I)C(=O)O	86
CCCCCCc1ccc(O)cc1O	96.7
O=c1[nH]cc(F)c(=O)[nH]1	81.9
C=C1C[C@H]2[C@@H]3C=C(C)C4=CC(=O)CC[C@]4(C)[C@H]3CC[C@]2(C)[C@@]1(OC(C)=O)C(C)=O	73.7
CCN(CCO)CCCC(C)Nc1ccnc2cc(Cl)ccc12 (stereo not shown)	91.5
O=c1[nH]c(=O)n([C@H]2C[C@H](O)[C@@H](CO)O2)cc1F	43.8
CCOC(=O)c1ccc(O)cc1	87.4
COC1=CC(=O)C[C@@H](C)[C@]12Oc1c(Cl)c(OC)cc(OC)c1C2=O	137
CCOC(=O)Nc1nc2ccccc2[nH]1	64.2
